Measured values of several laboratories.
Numbered parts are unrelated; each lists some results of a single study. Values joined by “and” are separate records of one study, mostly repeats; a detail may differ.
UniProt O15146, sequence (whole entry, looked up): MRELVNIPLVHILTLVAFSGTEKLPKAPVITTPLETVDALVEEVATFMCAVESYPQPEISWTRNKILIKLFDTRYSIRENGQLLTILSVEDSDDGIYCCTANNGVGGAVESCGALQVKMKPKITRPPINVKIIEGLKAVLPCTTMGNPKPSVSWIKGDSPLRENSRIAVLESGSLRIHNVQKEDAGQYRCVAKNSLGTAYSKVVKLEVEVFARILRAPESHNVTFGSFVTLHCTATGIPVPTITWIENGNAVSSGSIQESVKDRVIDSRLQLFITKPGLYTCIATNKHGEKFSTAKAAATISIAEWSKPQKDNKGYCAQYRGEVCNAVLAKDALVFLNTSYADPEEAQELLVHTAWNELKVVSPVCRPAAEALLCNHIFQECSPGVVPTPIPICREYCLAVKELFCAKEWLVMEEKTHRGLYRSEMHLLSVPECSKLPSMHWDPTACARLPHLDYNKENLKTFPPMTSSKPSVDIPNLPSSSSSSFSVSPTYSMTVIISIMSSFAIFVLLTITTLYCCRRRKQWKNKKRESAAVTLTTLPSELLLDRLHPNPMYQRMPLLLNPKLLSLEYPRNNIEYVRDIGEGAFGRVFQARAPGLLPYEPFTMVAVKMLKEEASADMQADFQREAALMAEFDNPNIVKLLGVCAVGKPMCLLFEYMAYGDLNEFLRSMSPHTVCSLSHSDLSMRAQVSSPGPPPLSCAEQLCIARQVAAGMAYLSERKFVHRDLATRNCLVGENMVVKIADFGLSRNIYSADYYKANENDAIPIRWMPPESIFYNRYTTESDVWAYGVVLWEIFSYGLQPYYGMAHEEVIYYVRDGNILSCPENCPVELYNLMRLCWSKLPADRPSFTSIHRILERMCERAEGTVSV
UniProt Q9Y572, sequence (whole entry, looked up): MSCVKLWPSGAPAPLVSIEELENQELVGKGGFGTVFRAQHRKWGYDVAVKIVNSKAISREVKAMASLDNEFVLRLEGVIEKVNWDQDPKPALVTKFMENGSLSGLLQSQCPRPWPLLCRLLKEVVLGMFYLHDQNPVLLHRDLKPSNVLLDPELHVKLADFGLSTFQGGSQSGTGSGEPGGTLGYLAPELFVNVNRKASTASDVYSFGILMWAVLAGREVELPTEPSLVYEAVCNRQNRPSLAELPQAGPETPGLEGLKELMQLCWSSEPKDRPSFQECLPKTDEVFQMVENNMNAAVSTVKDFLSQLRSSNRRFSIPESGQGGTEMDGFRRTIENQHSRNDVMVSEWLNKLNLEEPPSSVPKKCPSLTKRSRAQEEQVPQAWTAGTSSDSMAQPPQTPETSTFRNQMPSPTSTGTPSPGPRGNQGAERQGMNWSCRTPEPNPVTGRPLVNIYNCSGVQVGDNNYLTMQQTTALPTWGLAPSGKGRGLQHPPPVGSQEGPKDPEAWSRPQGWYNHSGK
UniProt Q04759, sequence (whole entry, looked up): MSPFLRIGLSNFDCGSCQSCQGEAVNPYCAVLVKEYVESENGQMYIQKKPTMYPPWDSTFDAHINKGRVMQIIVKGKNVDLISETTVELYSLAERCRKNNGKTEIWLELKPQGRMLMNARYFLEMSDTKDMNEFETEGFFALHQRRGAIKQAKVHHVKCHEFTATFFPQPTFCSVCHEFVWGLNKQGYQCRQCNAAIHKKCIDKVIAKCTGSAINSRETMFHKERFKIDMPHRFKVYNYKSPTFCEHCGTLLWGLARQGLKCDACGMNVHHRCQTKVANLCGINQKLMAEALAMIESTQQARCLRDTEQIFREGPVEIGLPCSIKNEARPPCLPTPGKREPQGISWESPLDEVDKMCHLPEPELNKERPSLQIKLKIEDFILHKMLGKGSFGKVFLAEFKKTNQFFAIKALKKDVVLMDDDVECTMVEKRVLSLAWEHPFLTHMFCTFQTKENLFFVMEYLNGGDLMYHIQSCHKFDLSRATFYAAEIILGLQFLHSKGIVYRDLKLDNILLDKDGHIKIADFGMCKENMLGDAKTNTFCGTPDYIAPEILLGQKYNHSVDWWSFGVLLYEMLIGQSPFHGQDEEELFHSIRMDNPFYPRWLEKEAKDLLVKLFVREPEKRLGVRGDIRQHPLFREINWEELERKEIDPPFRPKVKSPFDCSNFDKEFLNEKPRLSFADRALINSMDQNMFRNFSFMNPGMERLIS
UniProt P49760, sequence (whole entry, looked up): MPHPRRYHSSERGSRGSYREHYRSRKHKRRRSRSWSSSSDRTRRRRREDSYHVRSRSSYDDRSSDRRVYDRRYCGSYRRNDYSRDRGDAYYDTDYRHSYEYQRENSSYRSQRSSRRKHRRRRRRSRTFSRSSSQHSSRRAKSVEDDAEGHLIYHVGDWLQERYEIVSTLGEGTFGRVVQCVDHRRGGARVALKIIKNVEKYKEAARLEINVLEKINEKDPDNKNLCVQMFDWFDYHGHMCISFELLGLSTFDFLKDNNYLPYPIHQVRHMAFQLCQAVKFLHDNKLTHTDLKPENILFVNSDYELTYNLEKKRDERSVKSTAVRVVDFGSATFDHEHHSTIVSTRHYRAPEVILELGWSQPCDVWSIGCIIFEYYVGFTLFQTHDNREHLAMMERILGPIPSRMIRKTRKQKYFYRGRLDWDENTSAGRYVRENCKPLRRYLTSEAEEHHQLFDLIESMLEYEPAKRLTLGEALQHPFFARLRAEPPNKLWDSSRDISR
UniProt Q9H0K1, sequence (whole entry, looked up): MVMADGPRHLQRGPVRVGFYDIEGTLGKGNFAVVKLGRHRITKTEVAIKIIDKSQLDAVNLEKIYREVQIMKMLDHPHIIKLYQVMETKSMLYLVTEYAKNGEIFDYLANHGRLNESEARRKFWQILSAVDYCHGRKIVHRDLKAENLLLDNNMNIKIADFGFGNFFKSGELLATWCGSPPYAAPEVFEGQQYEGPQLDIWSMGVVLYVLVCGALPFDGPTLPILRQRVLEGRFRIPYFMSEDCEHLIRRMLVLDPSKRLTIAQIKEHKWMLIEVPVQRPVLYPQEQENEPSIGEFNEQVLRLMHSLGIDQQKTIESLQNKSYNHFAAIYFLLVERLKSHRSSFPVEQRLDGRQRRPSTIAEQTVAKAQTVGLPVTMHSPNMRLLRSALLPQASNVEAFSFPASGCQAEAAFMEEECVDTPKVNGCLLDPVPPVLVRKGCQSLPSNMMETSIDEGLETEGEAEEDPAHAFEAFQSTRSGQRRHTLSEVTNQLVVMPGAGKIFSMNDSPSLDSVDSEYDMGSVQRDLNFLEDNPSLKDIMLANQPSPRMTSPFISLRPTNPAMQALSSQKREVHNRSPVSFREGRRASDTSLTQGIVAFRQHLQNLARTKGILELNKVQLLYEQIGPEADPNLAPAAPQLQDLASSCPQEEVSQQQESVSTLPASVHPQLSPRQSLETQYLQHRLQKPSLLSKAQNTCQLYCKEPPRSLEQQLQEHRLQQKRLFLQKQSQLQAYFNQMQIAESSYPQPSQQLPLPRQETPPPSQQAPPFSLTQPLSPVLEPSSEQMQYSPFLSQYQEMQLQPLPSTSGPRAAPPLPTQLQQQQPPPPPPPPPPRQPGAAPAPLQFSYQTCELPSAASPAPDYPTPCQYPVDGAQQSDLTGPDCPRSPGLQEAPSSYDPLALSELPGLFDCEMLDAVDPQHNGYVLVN
UniProt Q06418, sequence (whole entry, looked up): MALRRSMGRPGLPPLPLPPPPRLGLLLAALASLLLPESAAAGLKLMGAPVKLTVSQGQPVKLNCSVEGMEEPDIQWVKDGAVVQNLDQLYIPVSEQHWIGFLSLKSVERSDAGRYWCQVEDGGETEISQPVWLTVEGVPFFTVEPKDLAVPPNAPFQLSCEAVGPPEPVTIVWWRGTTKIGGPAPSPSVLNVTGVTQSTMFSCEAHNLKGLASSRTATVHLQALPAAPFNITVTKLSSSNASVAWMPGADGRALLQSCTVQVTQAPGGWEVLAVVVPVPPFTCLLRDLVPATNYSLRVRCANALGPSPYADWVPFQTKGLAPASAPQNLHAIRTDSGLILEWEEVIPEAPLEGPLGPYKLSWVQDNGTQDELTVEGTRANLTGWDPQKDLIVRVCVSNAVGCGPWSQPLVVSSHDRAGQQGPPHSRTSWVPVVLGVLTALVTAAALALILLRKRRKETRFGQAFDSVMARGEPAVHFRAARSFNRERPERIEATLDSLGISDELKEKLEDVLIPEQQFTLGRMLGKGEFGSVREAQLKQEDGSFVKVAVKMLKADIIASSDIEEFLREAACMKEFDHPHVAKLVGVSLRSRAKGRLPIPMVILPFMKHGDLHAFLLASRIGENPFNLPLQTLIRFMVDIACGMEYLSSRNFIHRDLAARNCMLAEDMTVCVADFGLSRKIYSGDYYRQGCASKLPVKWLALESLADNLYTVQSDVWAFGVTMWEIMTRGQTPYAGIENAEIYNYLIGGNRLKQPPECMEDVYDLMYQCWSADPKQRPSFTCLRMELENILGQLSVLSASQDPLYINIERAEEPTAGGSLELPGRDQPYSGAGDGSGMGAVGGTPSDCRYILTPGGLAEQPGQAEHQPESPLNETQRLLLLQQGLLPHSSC
UniProt P49759, sequence (whole entry, looked up): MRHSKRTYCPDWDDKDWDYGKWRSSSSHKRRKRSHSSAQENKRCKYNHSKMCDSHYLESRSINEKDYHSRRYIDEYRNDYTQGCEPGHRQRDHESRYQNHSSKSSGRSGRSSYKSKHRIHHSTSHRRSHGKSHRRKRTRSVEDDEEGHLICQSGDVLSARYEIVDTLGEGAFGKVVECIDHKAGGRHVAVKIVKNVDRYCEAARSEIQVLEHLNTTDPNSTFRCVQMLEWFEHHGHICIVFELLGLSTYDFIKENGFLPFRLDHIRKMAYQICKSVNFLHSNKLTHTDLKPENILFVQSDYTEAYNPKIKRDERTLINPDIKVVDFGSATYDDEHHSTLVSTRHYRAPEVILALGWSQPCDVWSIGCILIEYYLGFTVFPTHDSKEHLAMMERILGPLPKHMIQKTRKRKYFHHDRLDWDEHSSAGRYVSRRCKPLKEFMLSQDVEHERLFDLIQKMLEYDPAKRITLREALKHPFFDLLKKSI

Series 1
Structure (SMILES): O=Nc1c(-c2c(O)[nH]c3ccccc23)[nH]c2ccccc12
Read-out: enzyme activity
Mode: inhibitor
Concentration: 0.5 µM
Relative to: control
| target | remaining activity |
| --- | --- |
| Serine/threonine-protein kinase Sgk2 (SGK2, Homo sapiens, UniProt Q9HBY8) | 91.8% |
| Tyrosine-protein kinase receptor TYRO3 (TYRO3, Homo sapiens, UniProt Q06418) | 79.6% |
| Muscle, skeletal receptor tyrosine-protein kinase (MUSK, Homo sapiens, UniProt O15146) | 71.2% |
| Cyclin-dependent kinase 2, with cyclin E (CDK2, Homo sapiens, UniProt P24941) | 31.3% |
| Tyrosine-protein kinase JAK1 (JAK1, Homo sapiens, UniProt P23458) | 63.4% |
| Serine/threonine-protein kinase SIK2 (SIK2, Homo sapiens, UniProt Q9H0K1) | 89.8% |
| Vascular endothelial growth factor receptor 1 (FLT1, Homo sapiens, UniProt P17948) | 73.6% |
| Tyrosine-protein kinase Tec (TEC, Homo sapiens, UniProt P42680) | 105% |
| Calcium/calmodulin-dependent protein kinase type 1 (CAMK1, Homo sapiens, UniProt Q14012) | 83.7% |
| Ribosomal protein S6 kinase alpha-3 (RPS6KA3, Homo sapiens, UniProt P51812) | 61.4% |
| Insulin-like growth factor 1 receptor (IGF1R, Homo sapiens, UniProt P08069) | 80.2% |
| Ephrin type-A receptor 2 (EPHA2, Homo sapiens, UniProt P29317) | 84.3% |
| Mitogen-activated protein kinase kinase kinase 20 (MAP3K20, Homo sapiens, UniProt Q9NYL2) | 89.6% |
| SRSF protein kinase 1 (SRPK1, Homo sapiens, UniProt Q96SB4) | 89.3% |
| Protein kinase C theta type (PRKCQ, Homo sapiens, UniProt Q04759) | 99.1% |
| Serine/threonine-protein kinase PAK 1 (PAK1, Homo sapiens, UniProt Q13153) | 86.1% |
| Casein kinase I isoform delta (CSNK1D, Homo sapiens, UniProt P48730) | 39.3% |
| Casein kinase I isoform epsilon (CSNK1E, Homo sapiens, UniProt P49674) | 46.1% |
| Dual specificity protein kinase CLK2 (CLK2, Homo sapiens, UniProt P49760) | 92.5% |
| Dual specificity protein kinase CLK1 (CLK1, Homo sapiens, UniProt P49759) | 90.9% |

Series 2
Technique: logD(dd/w) and ALogP
Notes: JT method
| SMILES | lipophilic permeability efficiency |
| --- | --- |
| CC(C)C[C@@H]1NC(=O)[C@H](CC(C)C)NC(=O)[C@@H](C(C)C)NC(=O)[C@H](C)NC(=O)[C@@H](Cc2cscn2)NC(=O)[C@@H](CC(C)C)NC(=O)[C@H](C)NC1=O | 2.16 |
| CC(C)C[C@@H]1NC(=O)[C@H](CC(C)C)NC(=O)[C@H](CC(C)C)NC(=O)[C@H](CC(C)C)NC(=O)[C@H](C(C)C)NC(=O)[C@H](Cc2cscn2)NC(=O)[C@H](C)NC1=O | 2.84 |
| CC(C)C[C@@H]1NC(=O)[C@H](C(C)C)NC(=O)[C@H](C)NC(=O)[C@H](CCC(=O)N2CCCC2)NC(=O)[C@@H](CCC(=O)N2CCCC2)NC(=O)[C@H](CC(C)C)NC(=O)[C@@H](CC(C)C)NC1=O | 1.69 |
| CC(C)C[C@@H]1NC(=O)[C@H](C)NC(=O)[C@H](CCC(=O)N2CCCC2)NC(=O)[C@@H](CCC(=O)N2CCCC2)NC(=O)[C@H](CC(C)C)NC(=O)[C@@H](CC(C)C)NC(=O)[C@H](CC(C)C)NC1=O | 1.41 |
| CC(C)C[C@@H]1NC(=O)[C@H](C)NC(=O)[C@H](CCC(=O)N2CCCC2)NC(=O)[C@H](C)NC(=O)[C@H](CC(C)C)NC(=O)[C@H](CC(C)C)NC(=O)[C@@H](C(C)C)NC1=O | 1.39 |
| CC(C)C[C@@H]1NC(=O)[C@H](C)NC(=O)[C@@H](CC(C)C)NC(=O)[C@H](CC(C)C)NC(=O)[C@@H](CCC(=O)N2CCCC2)NC(=O)[C@H](CC(C)C)NC(=O)[C@@H](CC(C)C)NC1=O | 2.23 |
| CC(C)C[C@@H]1NC(=O)[C@@H](C)NC(=O)[C@@H](CC(C)C)NC(=O)[C@@H](CC(C)C)NC(=O)[C@H](C(C)C)NC(=O)[C@H](CC(C)C)NC(=O)[C@@H](CC(C)C)NC1=O | 2.56 |
| CC(C)C[C@@H]1NC(=O)[C@H](C)NC(=O)[C@H](CCC(=O)N2CCCC2)NC(=O)[C@H](CC(C)C)NC(=O)[C@@H](CCC(=O)N2CCCC2)NC(=O)[C@H](CC(C)C)NC(=O)[C@@H](CC(C)C)NC1=O | 1.81 |

Series 3
SMILES: C[C@@H]1CN(c2ccc(-c3cc(C(=O)NCCOCCOCCOCCOCCNC(=O)Cn4cc(-c5[nH]cc(C(=O)N[C@@H](CC(N)=O)c6ccc(F)c(Cl)c6)c5-c5ccc(Cl)cc5F)cn4)ccc3F)cc2NC(=O)c2c[nH]c(=O)cc2C(F)(F)F)C[C@H](C)N1C
Cell line: MV4-11 expressing HiBiT-WDR5
Technique: ATPlite
Sample: RPMI with 10% FBS
Time: 24 h
| setting | viability |
| --- | --- |
| 10000 nM | 94.2% and 88.2% and 117% |
| 88.1 nM | 90.7% and 111% and 93.7% |
| 1510 nM | 108% and 87.3% and 97.2% |
| 3800 nM | 101% and 109% and 78.1% |

Series 4
Compound: CC1=C(C#N)[C@@H](c2ccc3[nH]nc(C)c3c2)C(C#N)=C(c2ccc(Cl)cc2)N1
Technique: competition with immobilised ligand
Concentration: 1 µM
| target | assay | remaining binding [%] |
| --- | --- | --- |
| Mitogen-activated protein kinase kinase kinase kinase 4 (MAP4K4, Homo sapiens, UniProt O95819) | cell-free assay | 100 |
| Proto-oncogene tyrosine-protein kinase receptor Ret (RET, Homo sapiens, UniProt P07949) | cell-free assay | 100 |
| Protein kinase C eta type (PRKCH, Homo sapiens, UniProt P24723) | cell-free assay | 96.1 |
| Mitogen-activated protein kinase kinase kinase 13 (MAP3K13, Homo sapiens, UniProt O43283) | cell-free assay | 100 |
| Serine/threonine-protein kinase TAO2 (TAOK2, Homo sapiens, UniProt Q9UL54) | cell-free assay | 100 |
| Mitogen-activated protein kinase 7 (MAPK7, Homo sapiens, UniProt Q13164) | cell-free assay | 90 |
| Dual specificity protein kinase CLK3 (CLK3, Homo sapiens, UniProt P49761) | cell-free assay | 100 |
| Serine/threonine-protein kinase D1 (PRKD1, Homo sapiens, UniProt Q15139) | cell-free assay | 81.1 |
| Epidermal growth factor receptor (EGFR, Homo sapiens, UniProt P00533) | cell-free assay | 100 |
| Non-receptor tyrosine-protein kinase TYK2, JH2 (TYK2, Homo sapiens, UniProt P29597) | cell-free assay | 100 |
| Serine/threonine-protein kinase MARK2 (MARK2, Homo sapiens, UniProt Q7KZI7) | cell-free assay | 100 |
| Tyrosine-protein kinase ABL1, phosphorylated (ABL1, Homo sapiens, UniProt P00519, E255K) | binding | 83.5 |
| Mitogen-activated protein kinase 12 (MAPK12, Homo sapiens, UniProt P53778) | cell-free assay | 58.6 |

Mixed results
| Compound | target | assay | setting | quantity | value |
| --- | --- | --- | --- | --- | --- |
| CC(C)S(=O)(=O)c1ccc2nccc(Nc3ccc4sc(C5CCCC5)nc4c3)c2c1 | Receptor-interacting serine/threonine-protein kinase 3 (RIPK3, Homo sapiens, UniProt Q9Y572) | kinase activity, inhibitor, ADP-Glo | 300 nM, 1 h | inhibition | 102% |

Repeated from above (series 4):
| target | assay | remaining binding [%] |
| --- | --- | --- |
| Serine/threonine-protein kinase TAO2 (TAOK2, Homo sapiens, UniProt Q9UL54) | cell-free assay | 100 |
| Mitogen-activated protein kinase 7 (MAPK7, Homo sapiens, UniProt Q13164) | cell-free assay | 90 |
| Dual specificity protein kinase CLK3 (CLK3, Homo sapiens, UniProt P49761) | cell-free assay | 100 |
| Serine/threonine-protein kinase D1 (PRKD1, Homo sapiens, UniProt Q15139) | cell-free assay | 81.1 |
| Epidermal growth factor receptor (EGFR, Homo sapiens, UniProt P00533) | cell-free assay | 100 |
| Non-receptor tyrosine-protein kinase TYK2, JH2 (TYK2, Homo sapiens, UniProt P29597) | cell-free assay | 100 |
| Serine/threonine-protein kinase MARK2 (MARK2, Homo sapiens, UniProt Q7KZI7) | cell-free assay | 100 |
| Tyrosine-protein kinase ABL1, phosphorylated (ABL1, Homo sapiens, UniProt P00519, E255K) | binding | 83.5 |
